Published values gathered from unrelated publications.
A part holds a random share of what one study measured. Positions count from the first letter of the parent shown.
Chain of UniProt P29597 (whole entry, looked up): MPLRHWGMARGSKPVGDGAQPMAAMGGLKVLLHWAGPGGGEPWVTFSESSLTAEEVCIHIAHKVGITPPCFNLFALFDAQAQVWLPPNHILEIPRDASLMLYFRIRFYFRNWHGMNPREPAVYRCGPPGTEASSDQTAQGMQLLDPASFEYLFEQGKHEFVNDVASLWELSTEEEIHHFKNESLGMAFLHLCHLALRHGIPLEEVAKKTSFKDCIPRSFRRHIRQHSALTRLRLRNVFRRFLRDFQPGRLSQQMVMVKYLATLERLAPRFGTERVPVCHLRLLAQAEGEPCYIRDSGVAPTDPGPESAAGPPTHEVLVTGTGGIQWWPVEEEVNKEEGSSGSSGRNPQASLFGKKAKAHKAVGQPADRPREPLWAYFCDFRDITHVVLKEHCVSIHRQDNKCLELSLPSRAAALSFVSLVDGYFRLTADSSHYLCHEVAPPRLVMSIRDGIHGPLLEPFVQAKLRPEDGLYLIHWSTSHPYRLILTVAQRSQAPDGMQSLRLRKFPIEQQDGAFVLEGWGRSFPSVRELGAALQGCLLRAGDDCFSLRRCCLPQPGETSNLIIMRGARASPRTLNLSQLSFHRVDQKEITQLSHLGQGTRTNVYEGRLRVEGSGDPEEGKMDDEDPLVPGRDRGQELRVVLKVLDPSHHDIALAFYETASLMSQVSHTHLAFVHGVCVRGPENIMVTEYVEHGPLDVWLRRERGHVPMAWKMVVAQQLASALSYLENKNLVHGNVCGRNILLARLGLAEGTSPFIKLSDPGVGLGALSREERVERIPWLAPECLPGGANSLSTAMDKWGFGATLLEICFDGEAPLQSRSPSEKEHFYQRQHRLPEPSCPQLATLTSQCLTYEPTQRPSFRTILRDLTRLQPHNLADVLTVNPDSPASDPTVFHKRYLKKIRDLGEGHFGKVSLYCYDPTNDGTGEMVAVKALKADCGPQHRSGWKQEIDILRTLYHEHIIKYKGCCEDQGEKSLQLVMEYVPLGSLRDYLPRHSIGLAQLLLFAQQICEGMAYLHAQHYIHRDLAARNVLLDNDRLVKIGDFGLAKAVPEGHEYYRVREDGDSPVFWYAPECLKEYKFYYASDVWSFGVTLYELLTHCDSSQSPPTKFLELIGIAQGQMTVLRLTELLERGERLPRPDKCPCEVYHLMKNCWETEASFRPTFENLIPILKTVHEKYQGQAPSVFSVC
Chain of UniProt Q13873 (whole entry, looked up): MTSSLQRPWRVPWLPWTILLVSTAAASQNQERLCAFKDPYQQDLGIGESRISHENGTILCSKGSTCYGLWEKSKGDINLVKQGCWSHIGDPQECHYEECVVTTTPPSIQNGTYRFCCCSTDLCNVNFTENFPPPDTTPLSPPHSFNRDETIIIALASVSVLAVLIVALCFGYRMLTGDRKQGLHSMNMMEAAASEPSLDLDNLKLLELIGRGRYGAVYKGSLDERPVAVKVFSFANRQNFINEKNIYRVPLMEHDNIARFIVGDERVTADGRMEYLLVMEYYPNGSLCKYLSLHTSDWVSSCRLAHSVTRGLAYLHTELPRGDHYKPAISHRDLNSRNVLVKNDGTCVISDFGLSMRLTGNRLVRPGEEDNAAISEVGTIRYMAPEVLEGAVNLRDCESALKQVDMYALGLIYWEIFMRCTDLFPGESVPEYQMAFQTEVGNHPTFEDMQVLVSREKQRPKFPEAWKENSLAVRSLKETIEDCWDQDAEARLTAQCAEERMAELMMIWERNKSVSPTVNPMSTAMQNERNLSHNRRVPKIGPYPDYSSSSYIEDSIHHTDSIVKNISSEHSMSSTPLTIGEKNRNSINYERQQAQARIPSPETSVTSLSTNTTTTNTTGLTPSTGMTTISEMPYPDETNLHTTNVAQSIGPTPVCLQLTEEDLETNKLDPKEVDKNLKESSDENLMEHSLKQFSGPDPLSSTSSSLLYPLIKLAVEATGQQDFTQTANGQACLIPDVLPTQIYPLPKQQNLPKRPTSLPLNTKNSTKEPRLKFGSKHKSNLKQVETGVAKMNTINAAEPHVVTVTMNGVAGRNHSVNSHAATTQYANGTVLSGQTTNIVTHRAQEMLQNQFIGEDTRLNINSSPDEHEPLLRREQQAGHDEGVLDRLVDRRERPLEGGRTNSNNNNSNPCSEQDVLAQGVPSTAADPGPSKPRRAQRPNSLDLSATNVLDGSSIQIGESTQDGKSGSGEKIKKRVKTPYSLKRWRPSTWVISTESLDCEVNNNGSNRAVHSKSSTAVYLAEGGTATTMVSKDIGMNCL
Chain of UniProt O95382 (whole entry, looked up): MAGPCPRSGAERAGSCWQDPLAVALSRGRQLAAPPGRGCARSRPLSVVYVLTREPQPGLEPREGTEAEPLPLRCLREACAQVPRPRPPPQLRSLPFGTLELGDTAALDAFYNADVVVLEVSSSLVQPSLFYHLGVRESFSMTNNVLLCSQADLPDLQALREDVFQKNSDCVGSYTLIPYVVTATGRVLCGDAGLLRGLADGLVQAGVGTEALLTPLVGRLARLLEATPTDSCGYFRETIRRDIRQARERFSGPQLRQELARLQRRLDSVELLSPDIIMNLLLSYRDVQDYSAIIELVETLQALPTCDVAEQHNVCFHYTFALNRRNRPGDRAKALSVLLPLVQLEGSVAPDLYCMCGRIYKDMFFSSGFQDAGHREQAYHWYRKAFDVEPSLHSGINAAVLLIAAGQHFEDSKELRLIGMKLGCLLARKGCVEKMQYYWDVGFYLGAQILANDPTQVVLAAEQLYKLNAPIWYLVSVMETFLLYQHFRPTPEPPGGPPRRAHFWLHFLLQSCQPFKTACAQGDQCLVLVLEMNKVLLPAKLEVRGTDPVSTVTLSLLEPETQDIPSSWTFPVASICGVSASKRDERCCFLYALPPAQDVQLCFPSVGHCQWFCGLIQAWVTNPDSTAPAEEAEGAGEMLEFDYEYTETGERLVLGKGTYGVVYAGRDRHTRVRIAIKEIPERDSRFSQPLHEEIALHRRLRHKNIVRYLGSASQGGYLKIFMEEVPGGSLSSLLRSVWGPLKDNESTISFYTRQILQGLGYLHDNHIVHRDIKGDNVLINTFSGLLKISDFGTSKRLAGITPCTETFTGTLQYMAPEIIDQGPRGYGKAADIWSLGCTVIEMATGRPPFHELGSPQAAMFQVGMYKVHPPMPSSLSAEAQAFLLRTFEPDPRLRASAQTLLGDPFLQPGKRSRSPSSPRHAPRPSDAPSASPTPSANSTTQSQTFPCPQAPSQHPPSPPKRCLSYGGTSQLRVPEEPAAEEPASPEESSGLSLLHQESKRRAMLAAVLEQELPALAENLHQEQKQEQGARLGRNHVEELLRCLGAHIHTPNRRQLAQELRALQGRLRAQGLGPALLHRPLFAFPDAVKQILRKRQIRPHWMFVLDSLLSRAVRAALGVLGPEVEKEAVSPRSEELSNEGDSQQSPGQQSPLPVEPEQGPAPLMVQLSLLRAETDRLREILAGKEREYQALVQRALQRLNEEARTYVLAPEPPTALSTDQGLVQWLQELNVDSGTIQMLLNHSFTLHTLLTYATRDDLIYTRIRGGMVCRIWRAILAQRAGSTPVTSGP

Block 1 — effect on: cell-free assay; method: competition with immobilised ligand; tested at: 1 µM
SMILES: Nc1cnc(N2CCc3cc(S(=O)(=O)Nc4c(F)cc(Cl)cc4F)cc(N4CCCC4=O)c32)nc1
target	remaining binding [%]
Mitogen-activated protein kinase kinase kinase 6 (MAP3K6, Homo sapiens, UniProt O95382)	75
Non-receptor tyrosine-protein kinase TYK2, JH1 (TYK2, Homo sapiens, UniProt P29597)	100
Bone morphogenetic protein receptor type-2 (BMPR2, Homo sapiens, UniProt Q13873)	100

Block 2 — target: CREBRF, bZIP domain (human); method: DHFR protein complementation; medium: yeast; baseline: wild-type JUN-FOS pair; reading: higher = stronger binding
Setting: single substitutions, most at no-binding floor
Starting sequence: JUN, bZIP domain (human); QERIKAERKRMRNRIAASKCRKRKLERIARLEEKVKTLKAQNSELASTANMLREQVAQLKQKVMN; partner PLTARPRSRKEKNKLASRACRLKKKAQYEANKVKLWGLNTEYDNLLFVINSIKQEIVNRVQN
Substitution	binding fitness [natural log]
I28C	-1.4
L45G	-1.55
A40C	-1.45
A57W	-1.06
T48G	-1.48
L52S	-1.6
I28A	-1.49
I28P	-1.51

Block 3 — method: RNA Bind-n-Seq; form: RNA; medium: in vitro; tested at: 1 µM; setting: whole 134-nt RNA, ends assumed; together with: 150 mM KCl; baseline: input library; reading: higher = stronger binding
Target: Ras GTPase-activating protein-binding protein 1, RRM domain (G3BP1, Homo sapiens, UniProt Q13283)
Chain of UniProt Q13283 (whole entry, looked up): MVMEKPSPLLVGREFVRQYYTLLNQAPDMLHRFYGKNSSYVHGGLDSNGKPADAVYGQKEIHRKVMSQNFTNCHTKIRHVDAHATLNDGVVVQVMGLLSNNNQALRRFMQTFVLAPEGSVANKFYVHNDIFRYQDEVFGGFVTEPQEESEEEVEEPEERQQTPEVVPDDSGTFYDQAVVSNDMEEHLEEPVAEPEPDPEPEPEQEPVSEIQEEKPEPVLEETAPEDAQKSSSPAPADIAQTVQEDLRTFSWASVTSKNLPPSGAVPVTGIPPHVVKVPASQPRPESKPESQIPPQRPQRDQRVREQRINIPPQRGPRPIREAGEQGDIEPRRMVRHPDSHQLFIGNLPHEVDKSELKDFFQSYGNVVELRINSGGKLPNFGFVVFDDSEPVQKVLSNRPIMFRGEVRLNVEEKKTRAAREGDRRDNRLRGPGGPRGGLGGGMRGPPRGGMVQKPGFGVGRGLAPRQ
All sequences stand within: GGGAGUUCUACAGUCCGACGAUC … UGGAAUUCUCGGGUGUCAAGG
Oligonucleotide	log2 enrichment
AAGUCCUGUGCUACACAUCGUAUGUACCGAAUCGGGGAAAGGGAAAGGGAAAGGGGAAAGUAUUAUGUUACGCCGUUCGGAUCUGCACUU	0.399
AGUCCUGUGCUACACAUCGUAUGUACCGAAUCGGAAAAAAAGGUUUUUUUGGAAAGGAAAGUAUUAUGUUACGCCGUUCGGAUCUGCACU	-0.346
UAACUUUAGAGGAGGAUCUGAUGGAUAUGGCAGUGGACGUGGAUUUGGGGCUGGCUAUAAUGGGUAUGGAGGAGGACCUGGAGGUGGCAA	-0.589
UCAAGUCCUGUGCUACACAUCGUAUGUACCGAAUCGGGGCCGGGCCGGGGCCGGAAAGUAUUAUGUUACGCCGUUCGGAUCUGCACUUCC	-1.37
CCUGUGCUACACAUCGUAUGUACCGAAUCGGGAAAAAAAGGGGAAAAAAAGGAAAAAAAGGAAAGUAUUAUGUUACGCCGUUCGGAUCUG	0.0439
UGGCCCUGGUGGCAUGCGGGGAGGAAGGGGUGGCCUCAUGGAUCGUGGUGGUCCCGGUGGAAUGUUCAGAGGUGGCCGUGGUGGAGACAG	0.908
CUGUGCUACACAUCGUAUGUACCGAAUCGGGGAAAAAAAGGGGAAAGGGGUUUUUUUGGGGAAAGUAUUAUGUUACGCCGUUCGGAUCUG	0.601
CCUGUGCUACACAUCGUAUGUACCGAAUCGGGGAAAGGGGAAAAAGGGGUUUUUUUGGGGAAAGUAUUAUGUUACGCCGUUCGGAUCUGC	0.682

Other studies, line by line
SMILES	medium	quantity	value
CCC[C@H]1NC(=O)CSC[C@@H](C(=O)OCC)N(C)C(=O)[C@H](CC(C)C)NC(=O)[C@@H](C)N(C)C(=O)[C@H](CC(C)C)NC(=O)[C@H](C)N(C)C(=O)[C@@H]2CCCN2C(=O)[C@H](CC(C)C)NC(=O)CN(CCC)C1=O	hydrocarbon/water	logD	0.656

Excerpt of the above (block 3):
Oligonucleotide	log2 enrichment
UGGCCCUGGUGGCAUGCGGGGAGGAAGGGGUGGCCUCAUGGAUCGUGGUGGUCCCGGUGGAAUGUUCAGAGGUGGCCGUGGUGGAGACAG	0.908
CUGUGCUACACAUCGUAUGUACCGAAUCGGGGAAAAAAAGGGGAAAGGGGUUUUUUUGGGGAAAGUAUUAUGUUACGCCGUUCGGAUCUG	0.601
CCUGUGCUACACAUCGUAUGUACCGAAUCGGGGAAAGGGGAAAAAGGGGUUUUUUUGGGGAAAGUAUUAUGUUACGCCGUUCGGAUCUGC	0.682
